{"data": "Experimental data pooled from the literature", "note": "Each numbered part is a random draw from the data of one study; scales do not carry over between parts."}
{"data": "Set 1", "organism": "Saccharomyces cerevisiae", "observed": "cell growth", "method": "competitive growth deep sequencing", "molecule type": "peptide", "notes": "peptide tiling library", "added": "cyclin E2-Cln2 fusion", "reading": "direction not given"}
{"Molecule": "SFLIEYEFLIPPSLKP", "enrichment score": 0.256}
{"Molecule": "RVSGLLSWTLSRVLWL", "enrichment score": -0.725}
{"Molecule": "RDLFDCDFGDLTPLDF", "enrichment score": 1.93}
{"Molecule": "PFSENVSAVQKLDFSD", "enrichment score": 1.43}
{"Molecule": "ISRLFPPRTPGWHQLQ", "enrichment score": -1.21}
{"Molecule": "VLLKRLQDVVSERANH", "enrichment score": -1.24}
{"Molecule": "RSLKLDGLLEEN", "enrichment score": -0.608}
{"Molecule": "QDYERRLLRQIVIQNE", "enrichment score": -0.23}
{"Molecule": "EPKTLFLGAGDFQF", "enrichment score": 1.6}
{"Molecule": "KSKHEEEEWTDDDLVE", "enrichment score": 1.72}
{"Molecule": "LKGRRLVFDN", "enrichment score": -0.827}
{"Molecule": "TRRRLFVENDSP", "enrichment score": 1.13}
{"Molecule": "KRRLDLETDHQY", "enrichment score": 0.691}
{"data": "Set 2", "target": "RNA binding protein fox-1 homolog 2, RRM domain, GST-SBP tag (RBFOX2, Homo sapiens, UniProt O43251-10, residues 100-194)", "method": "RNA Bind-n-Seq", "molecule type": "RNA", "matrix": "in vitro", "tested at": "365 nM", "notes": "natural RNA segment, single round, ends assumed", "baseline": "no-protein control", "reading": "higher = stronger binding", "Construct (chain)": "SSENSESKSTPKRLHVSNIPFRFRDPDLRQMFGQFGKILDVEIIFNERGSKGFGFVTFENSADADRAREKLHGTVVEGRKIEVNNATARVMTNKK"}
{"Sequence": "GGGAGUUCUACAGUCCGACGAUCUAAGUGUGUGAUACAGUUUGUUACUUUUAAGUACAUUUUAAUAAUUUCAGACAUCUGCAUUUUUAUUGAACAGUUGACUGUAUCUGACCCAUCAUACUACUAUACUUCUGUGGAAUUCUCGGGUGCCAA", "RBNS enrichment (R)": 0.345}
{"Sequence": "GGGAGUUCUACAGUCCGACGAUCCACUUGGCCCUUUUCCAAGCACAUCUGGGCAGAUAUAGACACAGGAAGAUAGGGUCCAACAGCGAGAGCCAGGCCCCUCCCCACCCCCACCAGCUCUCUCUAUCAUGGAUUGGAAUUCUCGGGUGCCAA", "RBNS enrichment (R)": 0.313}
{"Sequence": "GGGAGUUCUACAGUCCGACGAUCUCUGGUGGGAAGACAUGCCAGUGUUGGCCAUUGUCUCCCAUUCCAAAGAGAAUAACUUUGAACUGAGGGUGUGUAUCAGAGUAUGUACAUAUGUAAUAUACCCUUAUAUUUGGAAUUCUCGGGUGCCAA", "RBNS enrichment (R)": 0.424}
{"Sequence": "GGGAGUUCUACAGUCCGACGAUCCACCUCUCGCGGCAGCUGUCAUUUCCAUGUGCACUGGGACGGGAAGUCAAACGAGGAAUUUAAAAAAGCAAAAGUUGACCGAAGGUGCAUUUUUGUUUAGACUCCCUGAGUGGAAUUCUCGGGUGCCAA", "RBNS enrichment (R)": 0.306}
{"Sequence": "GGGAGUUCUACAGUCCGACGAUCUGUGCAGAAUACUCAACAAUGUUCAAAGACCUUCUUAACUAUUCAGAAGGCAGGAAGUCCUACACCAUAGUUAGAUGAACCUAACUGUACCUGGAAGUUGCCCAUUUAACUGGAAUUCUCGGGUGCCAA", "RBNS enrichment (R)": 0.301}
{"Sequence": "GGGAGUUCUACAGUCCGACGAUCGCUGCCCCCUGCAAAGUAAACUCCAAGACAAACCAAACCCAAGGUACAAAUGUGUUACACAUAAAUGUUUUCCUUCCUGGGGGUCUGUGUUGGAUGUUGUGGGCCUGGAGUGGAAUUCUCGGGUGCCAA", "RBNS enrichment (R)": 0.48}
{"Sequence": "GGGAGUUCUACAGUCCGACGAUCGUUUCCUUUGGGCUGCCUUUCUAUCACAUUUGUGAAGGAUGGAUUUCUCAGCAGGGCUGAUGCUGCCCAAGAUAAGUAUAUCUGUCCACAUUAGUCAUUUUAGUCGAUUCUGGAAUUCUCGGGUGCCAA", "RBNS enrichment (R)": 0.279}
{"Sequence": "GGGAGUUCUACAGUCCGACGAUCGCCCGUCAUUCAGAGACCACUGUGAACAUUUGGAUGUAGAUGCUGUUCUCCCUAACUCUUUGUUCCAGUGCUGGGAAUUGAAUAGUGAGGUUCAGGAUUGCUAAGCGAGUUGGAAUUCUCGGGUGCCAA", "RBNS enrichment (R)": 0.564}
{"data": "Set 3", "target": "RING finger protein unkempt homolog, zinc fingers 1-6, SBP tag (UNK, Homo sapiens, UniProt Q9C0B0, residues 30-357)", "method": "RNA Bind-n-Seq", "molecule type": "RNA", "matrix": "in vitro", "tested at": "100 nM", "notes": "RNA with constant flanks, vertebrate orthologous sites, ends assumed", "baseline": "input RNA pool", "reading": "higher = stronger binding", "sequence of UniProt Q9C0B0 (30-357, looked up)": "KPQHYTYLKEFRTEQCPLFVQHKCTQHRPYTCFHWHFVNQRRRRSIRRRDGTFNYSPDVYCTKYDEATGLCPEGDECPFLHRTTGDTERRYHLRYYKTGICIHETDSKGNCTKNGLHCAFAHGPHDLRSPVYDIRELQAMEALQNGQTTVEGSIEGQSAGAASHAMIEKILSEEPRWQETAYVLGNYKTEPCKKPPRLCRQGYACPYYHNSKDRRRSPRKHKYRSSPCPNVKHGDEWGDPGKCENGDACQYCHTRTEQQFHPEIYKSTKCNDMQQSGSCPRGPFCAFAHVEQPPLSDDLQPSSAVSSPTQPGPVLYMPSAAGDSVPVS"}
{"Sequence": "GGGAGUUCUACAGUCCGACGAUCCUGAAGCUUUGUGUUUGGCUGCACCUGCAUAAGCUGCUACAAAUAGAAUAAAGAAUUUCAUAGCCUGUAUCUAUCAUUUAGAUGCAUGGGAAUGGGCUUUGCACAUAGUAGGUUUGGAGCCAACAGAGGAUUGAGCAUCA", "bound/input enrichment": "1.75 ratio"}
{"Sequence": "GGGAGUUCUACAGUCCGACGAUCUUUCGUUGUACUGCAAAUCAUCCUCGCUUUAAGCUAGCCGCCGUGAUUACUAGUCUGUGCUAACAGAAUCAUUUACUACUACCUUUUAAUUAUGUGCUUUGUCUGAUACCUGAAACCAGUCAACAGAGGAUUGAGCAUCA", "bound/input enrichment": "0.867 ratio"}
{"Sequence": "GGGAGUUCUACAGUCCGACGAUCCGUCCUUGUGUACUGUCCCCAACCAGGGCCAAGGGCCAGAUGUCUCUCUGAGGACUUGCAUUUAAAACAUUUUUUAAAUCGUUGUACAGGAAGAGAUGUGUCUGAGCAGCAUCUCGAAGUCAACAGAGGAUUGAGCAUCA", "bound/input enrichment": "0.512 ratio"}
{"Sequence": "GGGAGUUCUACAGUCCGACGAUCUUCUAGUACUUAAGCCAAUAGUUCUAAAAUGCUAUUUAUUUGUGUCUGUAAGUUUGUACAUAAUUCCAGCCUCAUUGUUGCGGAAUUAUUUUUUCAUGCAUUUGAGUUUUGCUUGAAAUUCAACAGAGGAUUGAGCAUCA", "bound/input enrichment": "0.36 ratio"}
{"Sequence": "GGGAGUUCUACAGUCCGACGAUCCAGCUGAUUCACUGAUUGGGAGAGCUGCACAUAUAGCUGUUCUUGAUUCAGAAAUAUUUUUAGAAAAAUUCUUUCUGGUUGCUGCCCUCAAAUAUUUCCAGUAGGAUAAAAGCAUUCUUACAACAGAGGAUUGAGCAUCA", "bound/input enrichment": "0.649 ratio"}
{"Sequence": "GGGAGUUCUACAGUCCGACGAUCCACAUCUGGUGAUAUUUGGCCUGGCCUUUCAGCUUAUGAUAAUAGUCCUAGGUCACCUCAUAGUCCUUCACCGAUUGCUACGCCACCUAGUCAGAGUUCAUCUUGCUCUGAUGCGCCCAUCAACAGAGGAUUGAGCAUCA", "bound/input enrichment": "0.635 ratio"}
{"Sequence": "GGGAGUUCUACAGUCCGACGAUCCUCUAUGGGCCUCGCAGAGUUGAAAUAAUGGAAGAGGAAAGUGAACAGUAACCUUCAUUUUAGUAUUUAUGCUUAGGUGUGAAAUAAAUGUUAUUUGUUGAUCAUUUCUAUAAUCCAGAGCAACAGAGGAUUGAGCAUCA", "bound/input enrichment": "0.435 ratio"}
{"Sequence": "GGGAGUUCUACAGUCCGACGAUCGGAGAUAAUGAAUAUUAAAGAAACAUUCUCGUCUUCCUUUACCUUUUGUCCCCUAAUACCUAGUCUACUUUUUAAACUUUCAGACUUCACUGCUUUUUGAAUUCAUAAUUCUAAUUUUCACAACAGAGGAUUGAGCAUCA", "bound/input enrichment": "0.851 ratio"}
{"data": "Set 4", "target": "Sal-like protein 4, full length isoform A (SALL4, Homo sapiens, UniProt Q9UJQ4, residues 1-1053)", "method": "universal PBM", "molecule type": "double-stranded DNA, one strand shown", "matrix": "in vitro", "tested at": "600 nM", "notes": "8-mer, flanks averaged, mean of replicates", "reading": "higher = stronger binding", "sequence of UniProt Q9UJQ4 (whole entry, looked up)": "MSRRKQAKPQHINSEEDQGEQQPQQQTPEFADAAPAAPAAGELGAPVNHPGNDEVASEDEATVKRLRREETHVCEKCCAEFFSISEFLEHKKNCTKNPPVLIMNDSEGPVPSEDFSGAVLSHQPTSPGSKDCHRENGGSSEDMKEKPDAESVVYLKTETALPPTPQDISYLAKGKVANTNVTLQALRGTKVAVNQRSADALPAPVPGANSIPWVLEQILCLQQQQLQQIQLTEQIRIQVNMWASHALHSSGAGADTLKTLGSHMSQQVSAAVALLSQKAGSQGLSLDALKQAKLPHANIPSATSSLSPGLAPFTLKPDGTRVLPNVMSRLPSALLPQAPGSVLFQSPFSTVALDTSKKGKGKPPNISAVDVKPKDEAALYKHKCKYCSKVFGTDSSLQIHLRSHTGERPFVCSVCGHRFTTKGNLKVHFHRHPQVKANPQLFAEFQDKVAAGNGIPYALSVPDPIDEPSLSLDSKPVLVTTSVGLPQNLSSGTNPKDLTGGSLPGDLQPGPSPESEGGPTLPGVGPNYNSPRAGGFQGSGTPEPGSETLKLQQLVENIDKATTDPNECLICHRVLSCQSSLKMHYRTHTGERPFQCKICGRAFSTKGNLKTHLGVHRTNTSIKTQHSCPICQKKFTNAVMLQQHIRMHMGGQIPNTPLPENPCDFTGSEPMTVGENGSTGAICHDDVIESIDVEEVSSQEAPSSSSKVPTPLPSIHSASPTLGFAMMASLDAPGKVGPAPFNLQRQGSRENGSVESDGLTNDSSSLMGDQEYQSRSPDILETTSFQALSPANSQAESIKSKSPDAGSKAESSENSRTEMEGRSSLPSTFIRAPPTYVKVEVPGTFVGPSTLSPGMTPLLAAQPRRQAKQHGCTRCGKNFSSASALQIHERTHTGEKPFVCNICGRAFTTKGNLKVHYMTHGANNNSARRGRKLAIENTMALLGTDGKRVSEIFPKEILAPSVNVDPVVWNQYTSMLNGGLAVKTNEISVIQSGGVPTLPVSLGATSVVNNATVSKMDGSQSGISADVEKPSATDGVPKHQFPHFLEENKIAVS"}
{"Sequence": "GGCACGGA", "E-score": -0.205}
{"Sequence": "AGGCGACC", "E-score": -0.251}
{"Sequence": "ACGGCTGA", "E-score": -0.128}
{"Sequence": "CTGTGGGC", "E-score": -0.229}
{"Sequence": "GTACTAAC", "E-score": 0.0938}
{"Sequence": "CTAGTAAA", "E-score": 0.238}
{"Sequence": "CGCCGAGA", "E-score": -0.291}
{"Sequence": "TATGGCCA", "E-score": 0.0694}
{"Sequence": "GCTCCCAC", "E-score": -0.265}
{"Sequence": "CCGTGAAA", "E-score": 0.00931}
{"Sequence": "GCTATAGA", "E-score": 0.23}
{"Sequence": "CAAGCGCG", "E-score": -0.0838}
{"Sequence": "CTGCTTCC", "E-score": -0.124}
{"Sequence": "CCTTCGGC", "E-score": -0.349}
{"Sequence": "GGGTCATA", "E-score": 0.161}
{"Sequence": "AAAGATGC", "E-score": 0.0133}
{"Sequence": "CGCTGCTC", "E-score": -0.213}
{"Sequence": "AGCTCGCG", "E-score": -0.0679}
{"Sequence": "CCCTTTCC", "E-score": -0.276}
{"Sequence": "AGTCGGTG", "E-score": -0.274}
{"Sequence": "CATGCCAA", "E-score": 0.11}
{"Sequence": "GCAGAAGC", "E-score": -0.135}
{"note": "For quick reference, copied from above (set 4):"}
{"Sequence": "CCGTGAAA", "E-score": 0.00931}
{"Sequence": "GCTATAGA", "E-score": 0.23}
{"Sequence": "CAAGCGCG", "E-score": -0.0838}
